Results from different studies.
Each numbered part is a random draw from the data of one study; scales do not carry over between parts.

Study 1 — method: RNA Bind-n-Seq; molecule type: RNA; sample: in vitro; concentration: 365 nM; reference: no-protein control; reading: higher = stronger binding
Target: RNA binding protein fox-1 homolog 2, RRM domain, GST-SBP tag (RBFOX2, Homo sapiens, UniProt O43251-10, residues 100-194)
Setting: natural RNA segment, single round, ends assumed
Constant ends, left off below: GGGAGUUCUACAGUCCGACGAUC … UGGAAUUCUCGGGUGCCAA
Residues (chain): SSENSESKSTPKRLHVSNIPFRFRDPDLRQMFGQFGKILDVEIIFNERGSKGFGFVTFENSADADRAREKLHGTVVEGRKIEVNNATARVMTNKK
| Oligonucleotide | RBNS enrichment (R) |
| --- | --- |
| UUUUUUUAAUGAUAACUUCUUUUCUGUUUAUUGUAAAACUAAGUUAAAAAUAAAAGGUUAAUGAGAAUGAUAUGGCUUUUAUUACUUGUUACUAUUAGCCCAUUGAUUAG | 0.515 |
| AUUCUUACUUGUUAGAAAUGUAGAAUGAACUUUGUUUGUAAUCCUUAAAUUAAAAUGUGGUAAGUAGGAAGCAAGAACUUAUUCUGUGUUUUUACGCAGCCAUACACUUA | 0.362 |
| AGCUUCACAGUCGCCUCAUCUCUAAGCACUCCUUCCCUGCCUUCCCUGUGGUCCCACUGCGCAGGGCACAGCCACCUCAGCCACUCCCAGGCUGGACCACACGCUAACCU | 0.452 |
| UUGGACUGAGUGGGUACGGCCAGCCACUCAGCCCAUUGGCAGCUGACAACGCAGACACGCUCUACGGAGGCCUGCUGAUAAAGGGCUCAGCCUUGCCGUGUGCUGCUUCU | 0.288 |
| AAUGUUGGAGCCGAUCCAGGGUUUGAGAGAGCUACAAAGACAUCGGGGGCUGGAGCCAUGCCUUGGUAGUGACAGACGCAGGUAAAGGUGACAUCCAUAAACAGAGGCAG | 0.644 |
| CCAAUGCCUGUGGAGAGUCUACAGGCCUAAGUGGCGGCCAUCUCAGUAAAGAUAUGGGCCAAGGAUAGUUUUUGUACCUGGGGCCUAUACCCAAUAACAAAAUCUGCCGG | 1.89 |

Study 2 — method: RNA Bind-n-Seq; molecule type: RNA; sample: in vitro; concentration: not given; setting: RNA with constant flanks, ends assumed; reference: input RNA pool; reading: higher = stronger binding
Target: RING finger protein unkempt homolog, zinc fingers 1-6, GST-SBP tag (UNK, Homo sapiens, UniProt Q9C0B0, residues 30-357)
Chain of UniProt Q9C0B0 (30-357, looked up): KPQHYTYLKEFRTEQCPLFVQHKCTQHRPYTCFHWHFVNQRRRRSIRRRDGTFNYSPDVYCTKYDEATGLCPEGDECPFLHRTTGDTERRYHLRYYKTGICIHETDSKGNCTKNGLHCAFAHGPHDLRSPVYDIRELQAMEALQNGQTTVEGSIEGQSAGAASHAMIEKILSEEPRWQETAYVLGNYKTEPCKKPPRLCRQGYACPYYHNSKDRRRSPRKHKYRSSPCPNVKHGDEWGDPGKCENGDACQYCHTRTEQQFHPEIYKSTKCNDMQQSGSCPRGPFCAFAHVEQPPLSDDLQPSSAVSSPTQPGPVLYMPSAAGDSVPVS
| Oligonucleotide | bound/input enrichment [ratio] |
| --- | --- |
| GGGAGUUCUACAGUCCGACGAUCAGACAUUUAUUCUUUCUUGGACCUCAGAUUUACCAGACAUCUCAUGGGUUUGUGGAUGCACUCCGAUGUUUGCAAUGAGCACUGUGGCUGGCAUGCCCCAGUGUUUUGGAUACCAAUGCACAACAGAGGAUUGAGCAUCA | 0.352 |
| GGGAGUUCUACAGUCCGACGAUCACCCCCCUCUUUCUCCUUGGCUGCAGUGGGGCCUUUAUCCAGUGCCAGGGAGGAACAACACCGUUAAUUUUUUUCUAACCUUGCCACUUUGAGGGAAGGAAGGGUUGGGGGAAGGGCAAGCAACAGAGGAUUGAGCAUCA | 0.323 |
| GGGAGUUCUACAGUCCGACGAUCAAAAACAAAAUUAAAAGCUAUUCAAUUCUGCAUGGAAUAUAUCUGCUGUCAUCUUAAUCUCCGUUUGGAUCAACCUCAUUUAUUUAUCUUAAAAUUAACCAGCUUUCUCAGUUCCAUCCACAACAGAGGAUUGAGCAUCA | 2.18 |

Study 3 — method: universal PBM; molecule type: double-stranded DNA, one strand shown; sample: in vitro; concentration: not given; reading: higher = stronger binding
Target: Sal-like protein 4, full length isoform B (SALL4, Homo sapiens, UniProt Q9UJQ4-2, residues 1-616)
Setting: 8-mer, flanks averaged, mean of replicates
Target sequence (chain): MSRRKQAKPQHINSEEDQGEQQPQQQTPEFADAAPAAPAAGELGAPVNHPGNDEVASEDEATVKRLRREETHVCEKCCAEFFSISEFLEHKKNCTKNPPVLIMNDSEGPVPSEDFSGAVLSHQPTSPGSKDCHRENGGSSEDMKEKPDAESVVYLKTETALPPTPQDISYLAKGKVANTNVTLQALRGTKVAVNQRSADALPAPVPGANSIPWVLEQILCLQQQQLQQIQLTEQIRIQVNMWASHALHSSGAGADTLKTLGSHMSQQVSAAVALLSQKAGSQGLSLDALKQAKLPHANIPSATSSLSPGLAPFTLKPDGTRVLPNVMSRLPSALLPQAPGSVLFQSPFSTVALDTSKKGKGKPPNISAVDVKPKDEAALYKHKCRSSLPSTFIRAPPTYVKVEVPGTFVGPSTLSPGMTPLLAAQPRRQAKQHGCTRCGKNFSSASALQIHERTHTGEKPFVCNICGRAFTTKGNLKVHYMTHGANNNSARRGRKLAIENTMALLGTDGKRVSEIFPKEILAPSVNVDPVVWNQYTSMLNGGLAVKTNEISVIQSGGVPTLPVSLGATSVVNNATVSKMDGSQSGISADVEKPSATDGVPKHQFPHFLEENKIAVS
| Oligonucleotide | E-score |
| --- | --- |
| GTACCCTA | 0.0465 |
| CGTGCCCA | -0.149 |
| ACATTCGG | -0.115 |
| TCCTCCCA | -0.0623 |
| GCATCTCC | -0.238 |

Further values, each from its own experiment
| Molecule | target | assay | system | conditions | scale | quantity | result |
| --- | --- | --- | --- | --- | --- | --- | --- |
| PhoQ, residues 284 288 289 292 302 303 TNASYF | PhoP, residues 12 14 15 18 19 LHATL (Escherichia coli, UniProt P23836) | Sort-seq, measured: YFP reporter | E. coli | PhoQ-PhoP variant library, added: 10 µM Mg2+ | reference: high Mg2+ state, higher = stronger signaling | fold induction | 17.2 |

Some of these lines once more (study 3):
| Oligonucleotide | E-score |
| --- | --- |
| GTACCCTA | 0.0465 |
| CGTGCCCA | -0.149 |
